Experimental data gathered from unrelated publications.
Numbered parts are unrelated; each lists some results of a single study. Substitutions count along the parent as printed.

Study 1
Target: CCNB1, cyclin fold, Cln2 fusion (human)
Technique: yeast growth competition, sequencing
Sample: yeast
Setting: weak parent motif
Relative to: not given
Reading: higher = stronger binding
Starting sequence: RBL1 docking peptide (human); GSAKRRLFGEDPP
Variant | normalised enrichment score
G1M | 0.186
E10K | 0.225
S2P | 0.998
S2C | 1.69
P13K | -0.26
R6T | 0.00671
P12C | 0.223
A3M | -1.18
R5P | 0.314
R6M | -0.11
G9A | 1.83
A3H | 0.733
G1K | 0.594
F8L | 0.147
L7N | 1.19

Study 2
Target: RNA binding protein fox-1 homolog 2, RRM domain, GST-SBP tag (RBFOX2, Homo sapiens, UniProt O43251-10, residues 100-194)
Technique: RNA Bind-n-Seq
Form: RNA
Sample: in vitro
Concentration: 365 nM
Setting: natural RNA segment, single round, ends assumed
Relative to: no-protein control
Reading: higher = stronger binding
All sequences stand within: GGGAGUUCUACAGUCCGACGAUC … UGGAAUUCUCGGGUGCCAA
Target sequence (chain): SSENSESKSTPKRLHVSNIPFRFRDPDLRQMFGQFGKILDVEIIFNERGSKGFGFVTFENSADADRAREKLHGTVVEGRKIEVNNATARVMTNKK
Oligonucleotide | RBNS enrichment (R)
AGCUGCCCCUGUCCCCACCUCUGGAGAAUCCACCCCCACCAGAUUCCUCCGCGGGAGGUGGCCCUCAGCUGGGACAGUGGGGACCCAGGCUUCUCCUCAGAGCCAGGCCC | 0.283
GGUCCCCAGCUUGCCCUGAGCAGCCCUUCAGGGCUUCUGGUUCCUUCUGCCGCCCUUCCUGAGACCUUAGAAACCAGAAGAGCCAUACAGUCAGUGGAAGGCGGGGGGGC | 0.4
AUAUUACAGAGAAUUAUUUUCUGAGAUAAUCUUAAACUAGAAUGUUCAAAACUAAUUGAUAAUUGAAGUAUCAAGAUACGUAGAACACCUCAGAGAUUUUUCUUCAGGAA | 0.499
AUGCCUAUUUUCCAAGCACAGUUCUGCCCCCCGGUUGACUUUUAUGCCACGUGUGCUUCAUGAUGGAACUUUUAGGUCAGUUCCUAUUAAAUGAGCUCUUUUGCAGAUAG | 0.505
GUAUUCUCAUUUUGAGUGACAUUCAGAGGUUCACGUUUGCUUCUCUGCCGAGCAAAGGGAACGUCCUCAGAUUUCCGUCCAUUUCAUUUCUUCAUUAGAGUAAACAGUGG | 0.224
GGGUCAGCUCUUCUGUGGAUUGCAUGGCGUGUGAUUAAAAGCCCAUGUGUUCCCACACAUCCACAUCAUGGGAAGGUUAAUGUGUGCCUCCUUGGAACUGGGUGUUGGUG | 3.93
UCUCACCGGGUGAUUCAUCAAAUUACCUACCAAGAGCUCCAAGAGGGGCUCCCUGCAAUGGACGAGGAGGCUCUAAAGCCAGCCUAAGGCACUGAUUGUGGAAGAUCUGG | 0.389
AGAACCUUUUUCACUAGGAAAUAAGAUUCAUUUCUUUCGGCAGUAGAUGUAGAUUCAUCUUUUAACGUUUCUUCAAAUUUGUUUCUGUCAGGCUUUGUGUUAUUUUAAAU | 1.97
AGGCUGCCCCGGGCCUGGCGGGCCACCCCUCUCUAUGCAAACACGUAAAAGCCAUGAAUGCUGGAAUCCAAAACUGACGAGGUUUAUUUUUUUCAGAGCCAGUGGCUGGU | 0.424
GCUCACAGAAACCUUUCAUGUUGUCUGUUUCCAAAAUGGAUUCAAUAAACAACAUUUUGUCCAUGUUACCCUAUUCUCAUGCUGGGUGCCCCAGGGGUGUCUUGAUCGAA | 0.387
ACUAACAAAGUGGUCGCAGGAGAUUUUGGAACGGCUGGUUUAAAUGGCUUCAGGAGACUUCAGUUUUUUGUUUAGCUACAUGAUUGAAUGCAUAAUAAAUGCUUUGUGCU | 0.702
AGAAAUAUUAUCUAUUUUAUUACCUUGAAUAUUUAAUAUUUUUCACUGGGAGGUUUGAAGCUUACAAAAUGAGAAUGUGCCAUGCAUGAAGCAAAGGAUUCCAGGCUCCA | 20.6

Study 3
Target: Prothrombin, mature alpha-thrombin (F2, Homo sapiens, UniProt P00734)
Technique: aptamer microarray, sandwich
Form: DNA with 2'F-ANA
Sample: in vitro
Concentration: 200 nM
Setting: whole 15-mer aptamer, many near background
With: Cy3 exosite-II aptamer, 400 nM
Reading: higher = stronger binding
Oligonucleotide: GGTTGGTGTGGTTGG
Modification | mean fluorescence intensity [a.u.]
2'F-ANA at 1 2 5 6 8 9 11 13 14 | 46.3
2'F-ANA at 2 4 6 7 8 9 10 | 76.9
2'F-ANA at 1 2 3 7 8 11 13 | 218
2'F-ANA at 1 3 4 5 8 9 11 12 15 | 88.8
2'F-ANA at 1 2 3 5 7 8 9 12 14 | 48.4
2'F-ANA at 1 3 5 6 11 12 14 | 43.3
2'F-ANA at 3 4 5 6 8 10 13 14 | 84.7
2'F-ANA at 2 3 5 7 12 14 15 | 58.9
2'F-ANA at 1 2 3 4 5 6 7 8 10 13 15 | 47.8
2'F-ANA at 2 3 4 8 9 10 12 13 15 | 262
2'F-ANA at 1 2 3 6 7 9 10 11 12 13 15 | 114
2'F-ANA at 2 5 7 10 11 14 | 49.9
2'F-ANA at 1 2 3 5 6 8 9 12 14 15 | 49.1
2'F-ANA at 2 3 4 5 9 12 | 199
2'F-ANA at 2 4 6 8 9 10 | 82
2'F-ANA at 5 9 10 13 15 | 262
2'F-ANA at 1 3 4 14 15 | 78.9
2'F-ANA at 3 4 5 8 10 11 12 13 14 | 47.9
2'F-ANA at 1 6 8 10 15 | 59.8
2'F-ANA at 1 2 5 14 15 | 43.7
2'F-ANA at 4 5 6 9 10 | 44.6
2'F-ANA at 1 2 3 4 5 6 9 12 14 | 96
2'F-ANA at 2 6 7 9 10 11 13 15 | 98.2
2'F-ANA at 2 3 4 6 8 12 15 | 866
2'F-ANA at 5 8 14 | 42.1

Study 4
Target: RING finger protein unkempt homolog, zinc fingers 1-6, SBP tag (UNK, Homo sapiens, UniProt Q9C0B0, residues 30-357)
Chain of UniProt Q9C0B0 (30-357, looked up): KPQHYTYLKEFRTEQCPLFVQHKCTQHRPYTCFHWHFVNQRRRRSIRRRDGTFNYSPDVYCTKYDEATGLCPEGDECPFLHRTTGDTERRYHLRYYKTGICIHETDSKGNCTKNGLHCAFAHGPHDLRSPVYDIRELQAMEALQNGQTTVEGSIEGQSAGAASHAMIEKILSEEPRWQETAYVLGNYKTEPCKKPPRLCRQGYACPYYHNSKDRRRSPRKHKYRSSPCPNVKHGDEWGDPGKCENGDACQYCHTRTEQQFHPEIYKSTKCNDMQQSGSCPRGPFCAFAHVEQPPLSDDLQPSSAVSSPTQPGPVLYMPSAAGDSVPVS
Technique: RNA Bind-n-Seq
Form: RNA
Sample: in vitro
Concentration: 100 nM
Setting: RNA with constant flanks, vertebrate orthologous sites, ends assumed
Relative to: input RNA pool
Reading: higher = stronger binding
All sequences stand within: GGGAGUUCUACAGUCCGACGAUC … CAACAGAGGAUUGAGCAUCA
Oligonucleotide | bound/input enrichment [ratio]
GCUGUUAAUGCACUGUUAUACCAGGCAUUGUCUGAAGUUAGUGUAAUCUAGAAGAUUUUAUAGUUUUAUUUUAAUGAAGUAUGAAUCGGAACAAAACUGUUAGGAGUAUGUAGUCUUUUA | 1.79
GGAAAGUUACAGACCAGACUCUGAAAGCAGAAGUACAGGAUCCUGGUUAUCAUCAUCUUUGAGGAAUAGAUGUACACCGCUCUUUUCCAGAAGAAGAAGAGAAGGGAGAGAUGAAUCUGC | 0.328
GAAGGGCUGCGUAGAGUAGGGCGUGUUCUGCUUAGCUCACUGCUUCUUGAUUUCCCUUUUUAGGGGUGGGGCAGGGUUGCGGACACAUCAGCGGGAGCUGCCGCGAGUCACCUCAUAUUU | 0.775
UUGGGACCAGCUCUCCAAAUAGGAAUAGUAGUAAAAAAAAUAAGCAAAAUGAUAUUUGUAUAGAAAAAACAGAAGUUAAAUCAUGUAAAGUAAAUGCUGCCAGUGUUCCAGGCCCUAAAG | 1.83
CAGGUCUGUAAAUGUGUGCUAAACAAAAGGAAACAAAUCAGAGUUUAUUUAUAAACAGAAUAGUUUAUUUAAAGUGAUGGUCUUUCCCUCAUUGAUAUUGUGGUAUGCAUUAUUAAUUCA | 0.414
UGAAGAUUAUUAAAGGAAGCCCCUGUGAGCUCCAACAUCUAAUUUCUUUAGAUAUUCUAAUGUCAUUUUUGUUGGAACUGUAUAUUGACAGUUCUUAUCUAAGCCUUCAUAAGGAGAAGA | 0.248
GCUGUUGGUGAUUUGCAGAAACCUCAAUUCUGUCAGUGCAGAGUGCCCUGCACCCUGAAACUAGCUAUAGGAAUUUAAUAUUUUUAAAAGUUUUACAUUGCUGUAUAUUCAAAGAUUUGU | 0.404
AGGGAUGGCCCCCAAUCCCACCUCUGUUUAUUCUGUAAACUGCAACCUAUAAAUAACCUUUAGCAUUCCUAUUGUAACAAAAUUAAUUUUUAUGAAAUAAAUUAUAUUUCCUAGUCUAAU | 0.963
GGUCAUUUAUAGCAAUUAGAGUGGGUUGCCCCUCUACUUCUCCCAAGAAGAAAUCCCAAAUAGAUUCCCUUCAUGUCAGAUUAUACUGUUCUGAUUUUAUUUUCUAUUAUUUUUACAUAU | 0.909
AUAUUUAAAAUUCCAGUAGUUAUAUUUAAUGAGCAUACCUACGUUCCCUUUUCAUUAAAGUAGCUUUCAUUUCUAUUAUUCCGUUUUACUGAUAGGAACAAAUAGGAGGUCUGUGUGAGC | 0.683
AUCUCUCAUUUUAUAUGUCCAAAAAAGGUUUUAAAUUUGUAAACACUUGCUAGUUUUAGUUAGCUCUGCCCUCAUAAAAGUAUUACUAUAAUUCACCACAAACAGAUAAUCUGUCUGAAU | 0.896

Study 5
Target: Histone acetyltransferase KAT6A, winged helix 2, GST fusion (KAT6A, Homo sapiens, UniProt Q92794, residues 85-181)
Technique: protein binding microarray
Form: double-stranded DNA, one strand shown
Sample: in vitro
Concentration: not given
Setting: 8-mer, flanks averaged, mean of 2 arrays, mostly near background
Relative to: not given
Reading: higher = stronger binding
Target sequence (chain): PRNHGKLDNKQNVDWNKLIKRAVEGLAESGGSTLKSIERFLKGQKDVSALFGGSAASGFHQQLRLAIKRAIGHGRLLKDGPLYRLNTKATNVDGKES
Oligonucleotide | E-score
ACGGGACT | -0.107
CCGCATCA | -0.00319
CGAGCGAA | 0.108
AGGAGGAT | -0.0264
ATCCTTGC | 0.0931
AATTGTAA | -0.026
ATACCTAA | -0.0292
CGATGCGA | 0.134
CTATTAAG | 0.00975
GAGGACGC | 0.0889
CAATATAC | -0.134
CTTTCTAC | -0.0406
AGCCTCAC | -0.0266
CGAATCTC | 0.00756
CGCCCCCA | -0.0725
GTGCCTTA | 0.0565
